Values quoted from earlier work as cited in several papers.
Protocols differ between the studies behind these lines. ± marks the error that the study gave. ≈ marks a conversion by molar mass, not a printed value.
Sequence of UniProt P07333 (whole entry, looked up): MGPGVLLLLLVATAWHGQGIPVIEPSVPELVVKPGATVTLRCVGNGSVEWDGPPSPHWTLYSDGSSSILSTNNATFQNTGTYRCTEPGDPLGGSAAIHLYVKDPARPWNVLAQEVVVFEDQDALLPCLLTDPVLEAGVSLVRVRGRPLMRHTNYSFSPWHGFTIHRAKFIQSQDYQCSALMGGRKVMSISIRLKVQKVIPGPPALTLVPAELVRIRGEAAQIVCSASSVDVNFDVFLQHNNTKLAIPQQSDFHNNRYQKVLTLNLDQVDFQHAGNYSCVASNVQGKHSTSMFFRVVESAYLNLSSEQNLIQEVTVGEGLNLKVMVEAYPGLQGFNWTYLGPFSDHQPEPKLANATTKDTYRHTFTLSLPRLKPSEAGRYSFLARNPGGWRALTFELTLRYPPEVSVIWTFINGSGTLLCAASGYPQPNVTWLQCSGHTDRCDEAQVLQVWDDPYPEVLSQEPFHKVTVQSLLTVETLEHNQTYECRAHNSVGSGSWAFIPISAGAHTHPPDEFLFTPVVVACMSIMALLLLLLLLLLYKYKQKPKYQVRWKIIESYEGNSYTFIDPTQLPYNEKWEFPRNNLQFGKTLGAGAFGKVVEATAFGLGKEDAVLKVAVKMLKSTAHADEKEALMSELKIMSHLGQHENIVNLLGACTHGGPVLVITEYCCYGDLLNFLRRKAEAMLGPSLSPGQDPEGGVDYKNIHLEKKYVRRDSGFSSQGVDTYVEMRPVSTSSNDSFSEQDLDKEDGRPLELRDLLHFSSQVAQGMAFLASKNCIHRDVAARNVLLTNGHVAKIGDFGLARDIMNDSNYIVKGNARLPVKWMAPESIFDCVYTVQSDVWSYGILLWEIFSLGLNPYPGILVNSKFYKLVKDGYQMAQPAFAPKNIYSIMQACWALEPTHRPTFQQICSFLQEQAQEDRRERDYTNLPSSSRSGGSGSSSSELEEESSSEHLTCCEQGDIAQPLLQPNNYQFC
Sequence of UniProt Q3SYC2 (whole entry, looked up): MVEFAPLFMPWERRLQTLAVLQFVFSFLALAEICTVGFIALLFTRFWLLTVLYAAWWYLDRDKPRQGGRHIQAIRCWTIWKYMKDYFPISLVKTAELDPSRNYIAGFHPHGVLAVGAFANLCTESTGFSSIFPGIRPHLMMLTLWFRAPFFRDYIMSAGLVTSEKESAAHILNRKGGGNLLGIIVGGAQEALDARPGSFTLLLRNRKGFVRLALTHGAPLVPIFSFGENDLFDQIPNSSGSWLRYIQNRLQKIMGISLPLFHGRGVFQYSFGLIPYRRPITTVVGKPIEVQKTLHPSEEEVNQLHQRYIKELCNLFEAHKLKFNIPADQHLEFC
Sequence of UniProt O00329 (whole entry, looked up): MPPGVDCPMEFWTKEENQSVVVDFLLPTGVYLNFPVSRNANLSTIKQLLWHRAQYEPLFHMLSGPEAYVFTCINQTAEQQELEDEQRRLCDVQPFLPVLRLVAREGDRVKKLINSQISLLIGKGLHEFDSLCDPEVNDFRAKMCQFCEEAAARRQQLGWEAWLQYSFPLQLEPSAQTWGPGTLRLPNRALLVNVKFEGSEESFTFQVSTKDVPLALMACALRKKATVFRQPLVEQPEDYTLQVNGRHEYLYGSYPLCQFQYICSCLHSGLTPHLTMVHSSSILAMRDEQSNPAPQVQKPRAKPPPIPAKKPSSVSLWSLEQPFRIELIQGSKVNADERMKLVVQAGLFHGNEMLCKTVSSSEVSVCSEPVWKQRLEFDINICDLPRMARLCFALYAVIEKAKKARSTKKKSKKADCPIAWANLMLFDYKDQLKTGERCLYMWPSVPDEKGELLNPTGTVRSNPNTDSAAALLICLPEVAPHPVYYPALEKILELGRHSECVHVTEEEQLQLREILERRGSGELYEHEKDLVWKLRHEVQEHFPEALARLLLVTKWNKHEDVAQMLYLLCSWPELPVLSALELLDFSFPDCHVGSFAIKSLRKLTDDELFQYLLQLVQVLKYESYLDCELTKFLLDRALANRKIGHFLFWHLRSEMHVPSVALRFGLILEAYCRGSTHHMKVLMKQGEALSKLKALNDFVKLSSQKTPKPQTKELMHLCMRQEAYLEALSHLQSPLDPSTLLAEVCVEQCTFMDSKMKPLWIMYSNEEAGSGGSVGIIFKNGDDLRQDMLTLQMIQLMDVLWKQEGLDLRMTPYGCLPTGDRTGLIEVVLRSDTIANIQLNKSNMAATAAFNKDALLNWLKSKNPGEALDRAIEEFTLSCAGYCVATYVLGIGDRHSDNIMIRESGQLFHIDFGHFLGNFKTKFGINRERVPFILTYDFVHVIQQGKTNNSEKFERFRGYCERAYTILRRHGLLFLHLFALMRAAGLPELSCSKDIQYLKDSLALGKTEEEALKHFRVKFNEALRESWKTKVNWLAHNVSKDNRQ
Sequence of UniProt P0DMS8 (whole entry, looked up): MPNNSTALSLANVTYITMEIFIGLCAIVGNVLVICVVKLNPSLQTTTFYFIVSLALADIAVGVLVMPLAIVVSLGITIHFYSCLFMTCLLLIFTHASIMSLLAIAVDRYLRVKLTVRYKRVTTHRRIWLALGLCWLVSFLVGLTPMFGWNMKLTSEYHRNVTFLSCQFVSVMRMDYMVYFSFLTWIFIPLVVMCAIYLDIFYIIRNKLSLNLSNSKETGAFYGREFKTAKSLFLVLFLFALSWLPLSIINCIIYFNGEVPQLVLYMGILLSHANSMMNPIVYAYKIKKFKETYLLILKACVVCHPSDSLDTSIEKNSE
Sequence of UniProt P30542 (whole entry, looked up): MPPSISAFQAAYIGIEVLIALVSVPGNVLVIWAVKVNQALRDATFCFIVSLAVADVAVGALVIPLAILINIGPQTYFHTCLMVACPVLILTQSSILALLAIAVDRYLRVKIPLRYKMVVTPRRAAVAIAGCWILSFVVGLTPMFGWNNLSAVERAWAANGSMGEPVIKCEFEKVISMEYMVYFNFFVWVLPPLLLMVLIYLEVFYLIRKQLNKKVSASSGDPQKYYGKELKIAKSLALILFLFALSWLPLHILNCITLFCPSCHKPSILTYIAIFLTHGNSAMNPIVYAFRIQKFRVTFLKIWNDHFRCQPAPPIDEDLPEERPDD
Sequence of UniProt Q9P286 (whole entry, looked up): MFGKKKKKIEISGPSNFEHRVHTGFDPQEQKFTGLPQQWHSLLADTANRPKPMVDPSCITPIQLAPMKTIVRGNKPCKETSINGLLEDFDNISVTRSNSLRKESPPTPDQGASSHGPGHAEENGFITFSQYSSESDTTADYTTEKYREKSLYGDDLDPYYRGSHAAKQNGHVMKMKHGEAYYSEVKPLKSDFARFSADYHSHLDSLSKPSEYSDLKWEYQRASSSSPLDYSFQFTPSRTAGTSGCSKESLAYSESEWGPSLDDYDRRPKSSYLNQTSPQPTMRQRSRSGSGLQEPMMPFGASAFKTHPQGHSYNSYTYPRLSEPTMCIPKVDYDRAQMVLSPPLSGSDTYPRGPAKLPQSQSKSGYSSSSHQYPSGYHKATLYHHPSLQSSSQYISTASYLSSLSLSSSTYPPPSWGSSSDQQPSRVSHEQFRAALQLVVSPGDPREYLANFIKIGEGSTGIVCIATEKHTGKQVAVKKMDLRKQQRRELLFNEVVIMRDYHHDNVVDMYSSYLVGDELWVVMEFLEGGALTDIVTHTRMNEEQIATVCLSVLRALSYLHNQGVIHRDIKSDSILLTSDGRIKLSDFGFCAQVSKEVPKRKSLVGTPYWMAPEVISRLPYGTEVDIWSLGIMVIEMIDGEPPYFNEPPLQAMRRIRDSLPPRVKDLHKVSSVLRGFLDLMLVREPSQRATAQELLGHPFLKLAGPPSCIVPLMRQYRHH
Sequence of UniProt P41738 (whole entry, looked up): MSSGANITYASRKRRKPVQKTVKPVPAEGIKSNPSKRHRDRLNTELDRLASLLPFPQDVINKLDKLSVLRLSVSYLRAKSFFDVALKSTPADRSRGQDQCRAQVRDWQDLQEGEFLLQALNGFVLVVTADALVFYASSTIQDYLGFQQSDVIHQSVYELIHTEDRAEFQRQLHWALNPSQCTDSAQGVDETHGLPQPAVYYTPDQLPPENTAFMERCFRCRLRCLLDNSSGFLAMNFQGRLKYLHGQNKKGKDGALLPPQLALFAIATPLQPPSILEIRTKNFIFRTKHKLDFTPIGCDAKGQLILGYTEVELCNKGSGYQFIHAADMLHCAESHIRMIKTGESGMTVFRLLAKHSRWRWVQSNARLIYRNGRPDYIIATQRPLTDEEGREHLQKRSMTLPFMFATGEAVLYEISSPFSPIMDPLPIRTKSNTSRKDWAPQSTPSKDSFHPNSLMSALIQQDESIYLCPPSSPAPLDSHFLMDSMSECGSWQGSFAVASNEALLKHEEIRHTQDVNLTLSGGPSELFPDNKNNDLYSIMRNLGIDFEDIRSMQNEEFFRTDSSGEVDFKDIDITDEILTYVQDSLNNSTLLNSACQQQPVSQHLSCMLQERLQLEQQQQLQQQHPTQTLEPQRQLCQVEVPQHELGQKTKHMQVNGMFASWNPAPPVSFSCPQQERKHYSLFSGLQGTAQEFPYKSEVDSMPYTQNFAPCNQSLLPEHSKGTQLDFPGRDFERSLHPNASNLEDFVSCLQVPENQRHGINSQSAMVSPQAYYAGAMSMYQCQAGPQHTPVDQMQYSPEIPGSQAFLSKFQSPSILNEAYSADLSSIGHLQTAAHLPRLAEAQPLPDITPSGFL
Sequence of UniProt Q99873 (whole entry, looked up): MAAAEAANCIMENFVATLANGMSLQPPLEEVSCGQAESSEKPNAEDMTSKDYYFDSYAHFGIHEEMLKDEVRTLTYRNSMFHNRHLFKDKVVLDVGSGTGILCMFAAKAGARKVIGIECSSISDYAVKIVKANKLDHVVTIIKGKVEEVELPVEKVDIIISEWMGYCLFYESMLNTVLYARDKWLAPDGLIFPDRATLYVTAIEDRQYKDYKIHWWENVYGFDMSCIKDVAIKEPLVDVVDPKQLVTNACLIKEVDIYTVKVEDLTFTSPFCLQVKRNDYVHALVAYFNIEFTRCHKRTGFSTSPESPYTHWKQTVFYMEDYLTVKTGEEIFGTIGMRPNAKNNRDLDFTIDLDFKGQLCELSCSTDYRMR

Under binding, `O=C(CCCCCCc1ccccc1)c1ncc(-c2ccccn2)o1` is recorded as “no binding” (cannabinoid CB1 receptor; concentration not given).
`C[C@]12CC[C@@H]3c4ccc(O)cc4C[C@@H](CCCCCCCCC[S+]([O-])CCCC(F)(F)C(F)(F)F)[C@H]3[C@@H]1CC[C@@H]2O` (stereo partly shown) gave an average degradation of about 50% (Estrogen receptor (ESR1, Homo sapiens, UniProt P03372); degrader; human patients; 500 mg).
For `CC(C)(O/N=C(\C(=O)N[C@@H]1C(=O)N2C(C(=O)[O-])=C(C[n+]3ccccc3)CS[C@H]12)c1csc(N)n1)C(=O)O`, the MIC was at most 2 mg/L (Escherichia coli; clinical isolate RKI-No_602/16).
The Hill coefficient of `C[C@H](Cc1ccccc1)Nc1ncnc2c1ncn2[C@@H]1O[C@H](CO)[C@@H](O)[C@H]1O` is reported as 0.9 (ADORA1 (Homo sapiens, UniProt P30542); historical reference value).
For `CNC(C)C1CCC(N)C(OC2C(N)CC(N)C(OC3OCC(C)(O)C(NC)C3O)C2O)O1` (stereo not shown), the MIC was 2 mg/L (≈ 4.19 µM) (Enterobacter cloacae; clinical isolate RKI-No_146/09).
`Cc1cc(NS(=O)(=O)c2ccc(N)cc2)no1` has a Km of 1200 µM (NAT1; substrate).
`Cc1cc(C)nc(NC(=S)N2CCN(c3ccncc3)CC2)c1` — result for inhibition: “no inhibition” (PHGDH; enzyme activity; concentration not given).
With `C=CC(=O)N1CCC(C(=O)NCC(=O)N2CCN(c3nc(-c4cnc(N)nc4C(F)F)nc(N4CCOCC4)n3)CC2)CC1` the remaining activity was 5.9% (PIK3CA (Homo sapiens, UniProt P42336, H1047Y); kinase activity; 1 µM).
`Cc1ccc(C2=C(c3nn[nH]n3)C(O)=N[C@@](c3ccc(OCCCC(F)(F)F)cc3)(C(F)(F)F)C2)cc1`: “plasma dicarboxylic acid level” “increased” (MOGAT2 (Homo sapiens, UniProt Q3SYC2); refers to: dicarboxylic acid 18:1; plasma; concentration not given, phase I clinical study).
With `CC1=CC(=O)N(c2ccccc2)C1=O` the conversion was over 99% (Old Yellow Enzyme 1; substrate).
With `CCN(c1cc(-c2ccc(CN3CCOCC3)cc2)cc(C(=O)NCc2c(C)cc(C)[nH]c2=O)c1C)C1CCOCC1` the inhibition was 5 ± 4% (PRMT1 (Homo sapiens, UniProt Q99873); enzyme activity, inhibitor; 1 µM).
The remaining activity of `Cc1cc(NC(=O)c2cccc(NC(=O)/C=C/CN(C)C)c2)ccc1Nc1nccc(-c2cccnc2)n1` is reported as 9% (CSF1R (Homo sapiens, UniProt P07333); enzyme activity, inhibitor; 1 µM; reference: vehicle).
For `Cc1nc(NC(=O)N2CCC[C@H]2C(N)=O)sc1-c1ccnc(C(C)(C)C(F)(F)F)c1`, the remaining binding was 0.15% (PIK3CD (Homo sapiens, UniProt O00329); KinomeScan competition binding; 10 µM).
`CNC(=O)[C@H]1S[C@@H](n2cnc3c(NCc4cccc(I)c4)nc(Cl)nc32)[C@H](O)[C@@H]1O` has an activation of 114 ± 9% (ADORA3 (Homo sapiens, UniProt P0DMS8); agonist; concentration not given; reference: known A3AR agonist).
`Nc1cc(C(F)(F)F)c(-c2nc(N3CCOCC3)nc(N3CCOCC3)n2)cn1` gave a remaining activity of 86% (PAK5 (Homo sapiens, UniProt Q9P286); enzyme activity; 10 µM; reference: untreated).
With `Cc1c2ccccc2cc2c1ccc1ccccc12` the relative potency was 1.4 (Ahr (Rattus norvegicus, UniProt P41738); 50% effect level; reference: benzo[a]pyrene).

For quick reference, copied from above:
`C[C@]12CC[C@@H]3c4ccc(O)cc4C[C@@H](CCCCCCCCC[S+]([O-])CCCC(F)(F)C(F)(F)F)[C@H]3[C@@H]1CC[C@@H]2O` (stereo partly shown) gave an average degradation of about 50% (Estrogen receptor (ESR1, Homo sapiens, UniProt P03372); degrader; human patients; 500 mg).
With `CCN(c1cc(-c2ccc(CN3CCOCC3)cc2)cc(C(=O)NCc2c(C)cc(C)[nH]c2=O)c1C)C1CCOCC1` the inhibition was 5 ± 4% (PRMT1 (Homo sapiens, UniProt Q99873); enzyme activity, inhibitor; 1 µM).
